Results gathered from unrelated publications.
Numbered parts are unrelated; each lists some results of a single study.
UniProt Q86YV6, sequence (whole entry, looked up): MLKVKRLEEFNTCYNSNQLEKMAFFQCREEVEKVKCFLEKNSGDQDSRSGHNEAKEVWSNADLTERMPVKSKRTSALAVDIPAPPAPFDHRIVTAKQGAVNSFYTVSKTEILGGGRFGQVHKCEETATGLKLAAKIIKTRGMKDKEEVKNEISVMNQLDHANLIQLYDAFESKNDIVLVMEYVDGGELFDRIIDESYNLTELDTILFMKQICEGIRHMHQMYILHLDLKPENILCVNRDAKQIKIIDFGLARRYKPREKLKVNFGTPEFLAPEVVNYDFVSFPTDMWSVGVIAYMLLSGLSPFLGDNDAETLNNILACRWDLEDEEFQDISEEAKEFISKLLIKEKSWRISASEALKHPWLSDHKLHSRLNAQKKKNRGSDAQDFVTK
UniProt Q9NRP7, sequence (whole entry, looked up): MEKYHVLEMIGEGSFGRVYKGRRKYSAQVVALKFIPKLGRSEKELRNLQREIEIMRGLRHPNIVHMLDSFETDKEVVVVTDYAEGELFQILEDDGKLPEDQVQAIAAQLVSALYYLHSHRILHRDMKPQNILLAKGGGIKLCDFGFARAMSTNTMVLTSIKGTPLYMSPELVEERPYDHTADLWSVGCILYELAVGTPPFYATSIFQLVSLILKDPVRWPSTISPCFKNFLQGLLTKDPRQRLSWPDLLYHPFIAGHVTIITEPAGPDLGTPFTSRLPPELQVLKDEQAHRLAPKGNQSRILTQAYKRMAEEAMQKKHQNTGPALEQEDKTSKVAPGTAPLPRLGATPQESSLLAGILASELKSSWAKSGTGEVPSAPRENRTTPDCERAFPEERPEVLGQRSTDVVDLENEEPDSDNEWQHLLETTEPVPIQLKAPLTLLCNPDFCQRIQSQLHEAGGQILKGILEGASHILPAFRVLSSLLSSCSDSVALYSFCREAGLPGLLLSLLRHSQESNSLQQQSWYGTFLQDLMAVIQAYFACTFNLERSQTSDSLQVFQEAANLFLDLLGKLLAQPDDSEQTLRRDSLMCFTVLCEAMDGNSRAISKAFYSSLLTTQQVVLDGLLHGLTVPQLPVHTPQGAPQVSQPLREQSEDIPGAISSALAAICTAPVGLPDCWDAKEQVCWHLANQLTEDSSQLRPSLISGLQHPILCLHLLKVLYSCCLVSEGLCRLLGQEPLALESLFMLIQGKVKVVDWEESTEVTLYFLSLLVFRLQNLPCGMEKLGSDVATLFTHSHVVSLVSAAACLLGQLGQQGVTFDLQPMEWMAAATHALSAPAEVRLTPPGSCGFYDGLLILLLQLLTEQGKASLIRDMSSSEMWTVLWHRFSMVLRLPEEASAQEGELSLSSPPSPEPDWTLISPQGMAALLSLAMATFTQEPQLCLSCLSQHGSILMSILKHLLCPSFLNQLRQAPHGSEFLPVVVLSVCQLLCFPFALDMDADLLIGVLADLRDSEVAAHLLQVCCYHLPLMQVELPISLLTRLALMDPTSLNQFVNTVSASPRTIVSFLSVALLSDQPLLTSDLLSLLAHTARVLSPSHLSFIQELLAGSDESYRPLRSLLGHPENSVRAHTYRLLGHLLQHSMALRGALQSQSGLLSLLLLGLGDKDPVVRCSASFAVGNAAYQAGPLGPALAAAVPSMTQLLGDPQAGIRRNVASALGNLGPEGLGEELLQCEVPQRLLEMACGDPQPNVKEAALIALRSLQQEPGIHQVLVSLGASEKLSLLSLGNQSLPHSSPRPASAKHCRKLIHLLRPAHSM
UniProt O75676, sequence (whole entry, looked up): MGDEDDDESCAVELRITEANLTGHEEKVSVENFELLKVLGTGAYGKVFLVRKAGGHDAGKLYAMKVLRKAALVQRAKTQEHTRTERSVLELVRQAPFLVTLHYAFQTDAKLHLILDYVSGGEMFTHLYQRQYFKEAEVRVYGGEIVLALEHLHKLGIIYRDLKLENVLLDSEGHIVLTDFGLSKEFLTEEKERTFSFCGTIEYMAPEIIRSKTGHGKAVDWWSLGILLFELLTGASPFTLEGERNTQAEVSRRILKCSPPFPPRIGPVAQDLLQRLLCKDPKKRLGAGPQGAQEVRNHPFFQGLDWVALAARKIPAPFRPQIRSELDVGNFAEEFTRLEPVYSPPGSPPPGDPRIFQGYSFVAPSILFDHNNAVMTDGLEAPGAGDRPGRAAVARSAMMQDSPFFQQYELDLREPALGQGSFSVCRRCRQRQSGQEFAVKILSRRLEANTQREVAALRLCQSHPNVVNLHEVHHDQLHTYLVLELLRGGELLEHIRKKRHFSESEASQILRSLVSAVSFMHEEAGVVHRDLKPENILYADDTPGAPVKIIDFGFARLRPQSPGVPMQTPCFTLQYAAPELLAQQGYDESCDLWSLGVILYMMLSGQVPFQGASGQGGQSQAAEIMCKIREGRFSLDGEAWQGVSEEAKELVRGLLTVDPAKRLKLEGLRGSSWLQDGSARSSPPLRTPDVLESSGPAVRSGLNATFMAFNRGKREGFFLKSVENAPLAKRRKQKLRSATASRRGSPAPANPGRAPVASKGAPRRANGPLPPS
UniProt Q15831, sequence (whole entry, looked up): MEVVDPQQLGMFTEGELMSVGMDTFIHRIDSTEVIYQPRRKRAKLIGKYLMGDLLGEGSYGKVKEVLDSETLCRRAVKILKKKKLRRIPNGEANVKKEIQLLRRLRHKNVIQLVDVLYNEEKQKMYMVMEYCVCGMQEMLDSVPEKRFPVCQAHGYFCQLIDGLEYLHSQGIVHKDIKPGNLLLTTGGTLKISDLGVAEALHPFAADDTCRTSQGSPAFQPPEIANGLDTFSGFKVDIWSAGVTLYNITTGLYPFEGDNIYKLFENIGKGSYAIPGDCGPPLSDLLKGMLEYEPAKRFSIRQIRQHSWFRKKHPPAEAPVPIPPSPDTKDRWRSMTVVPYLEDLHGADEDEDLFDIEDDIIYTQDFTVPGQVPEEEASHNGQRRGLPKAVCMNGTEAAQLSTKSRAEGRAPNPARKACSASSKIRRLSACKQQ

Set 1
Target: Calcium/calmodulin-dependent protein kinase type II subunit alpha (CAMK2A, Homo sapiens, UniProt Q9UQM7)
UniProt Q9UQM7, sequence (whole entry, looked up): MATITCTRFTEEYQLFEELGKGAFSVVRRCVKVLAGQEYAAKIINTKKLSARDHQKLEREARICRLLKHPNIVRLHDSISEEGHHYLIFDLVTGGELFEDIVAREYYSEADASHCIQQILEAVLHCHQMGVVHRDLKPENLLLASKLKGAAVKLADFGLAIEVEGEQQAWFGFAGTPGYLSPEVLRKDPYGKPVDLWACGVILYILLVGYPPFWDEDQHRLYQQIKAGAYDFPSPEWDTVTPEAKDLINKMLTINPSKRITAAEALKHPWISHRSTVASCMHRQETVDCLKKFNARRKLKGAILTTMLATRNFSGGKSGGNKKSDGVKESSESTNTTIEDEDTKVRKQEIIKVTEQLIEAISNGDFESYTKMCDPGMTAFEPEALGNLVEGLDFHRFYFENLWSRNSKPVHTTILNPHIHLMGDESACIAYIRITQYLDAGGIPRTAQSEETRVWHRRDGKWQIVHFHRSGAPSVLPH
Read-out: enzyme activity
Mode: inhibitor
Concentration: 10 µM
Endpoint: inhibition
Structure (SMILES) = O=C(O)[C@@H](O)[C@H](O)[C@H](O)[C@@H](O)C(=O)O; value = 10%
Structure (SMILES) = CC1(C)CC[C@]2(C(=O)O)CC[C@]3(C)C(=CC[C@@H]4[C@@]5(C)C[C@@H](O)[C@H](O)[C@@](C)(CO)[C@@H]5CC[C@]43C)[C@@H]2[C@@H]1O; value = -17%
Structure (SMILES) = C/C=C(\C)C(=O)O[C@H]1[C@H](OC(C)=O)[C@@]2(CO)C(CC1(C)C)C1=CCC3[C@@]4(C)CCC(O[C@@H]5O[C@H](C(=O)O)[C@@H](O[C@@H]6O[C@H](CO)[C@@H](O)[C@H](O)[C@H]6O)[C@H](O)[C@H]5O[C@@H]5O[C@H](CO)[C@@H](O)[C@H](O)[C@H]5O)[C@](C)(CO)C4CC[C@@]3(C)[C@]1(C)C[C@H]2O (stereo partly drawn); value = -6%
Structure (SMILES) = Cc1ncc([N+](=O)[O-])n1CC(O)CN1CCOCC1 (stereo not drawn); value = -11%
Structure (SMILES) = CN1CCC(=C2c3ccccc3Sc3ccccc32)CC1; value = 1%
Structure (SMILES) = COC(=O)c1ccc(O)c(O)c1; value = 53%
Structure (SMILES) = Nc1ccccc1C(=O)C[C@@H](N)C(=O)O; value = 5%
Structure (SMILES) = CC1=CC=C(C(C)C)CC1; value = -19%

Set 2
Organism: Plasmodium berghei
Mode: inhibitor
Cell line: Huh-7
Strain: GFP-expressing sporozoites, liver stage
Concentration: 10 µM
Time: 24 h
Relative to: untreated control
Endpoint: infection rate
SMILES = CC(=O)OCC(=O)[C@@]1(O)CC[C@H]2[C@@H]3CCC4=CC(=O)CC[C@]4(C)[C@H]3C(=O)C[C@@]21C; value = 94.1%
SMILES = CCOC(=O)CCC(=O)O[C@H]1[C@H](O[C@@H]2[C@@H](C)[C@H](O[C@H]3C[C@@](C)(OC)[C@@H](O)[C@H](C)O3)[C@@H](C)C(=O)O[C@H](CC)[C@@](C)(O)[C@H](O)[C@@H](C)C(=O)[C@H](C)C[C@@]2(C)O)O[C@H](C)C[C@@H]1N(C)C; value = 96.1%
SMILES = CN(C)[C@@H]1C(O)=C(C(N)=O)C(=O)[C@@]2(O)C(O)=C3C(=O)c4c(O)ccc(Cl)c4[C@@](C)(O)[C@H]3C[C@@H]12; value = 51.9%
SMILES = CC(C[N+](C)(C)C)OC(N)=O (stereo not drawn); value = 94.9%
SMILES = C[C@]12CC[C@@H]3c4ccc(OS(=O)(=O)O)cc4CC[C@H]3[C@@H]1CCC2=O; value = 120%
SMILES = CC(C)CCC[C@@H](C)[C@H]1CC[C@H]2[C@@H]3CC=C4C[C@@H](O)CC[C@]4(C)[C@H]3CC[C@]12C; value = 93.8%
SMILES = CCCCCC(=O)O[C@]1(C(C)=O)CC[C@H]2[C@@H]3CCC4=CC(=O)CC[C@]4(C)[C@H]3CC[C@@]21C; value = 2.34%
SMILES = CC(=O)Oc1ccccc1C(=O)O; value = 91.3%
SMILES = CCCCCCCCCCCCCCCCCCCCCCO; value = 103%
SMILES = CN(C)c1ccc(C(=C2C=CC(=[N+](C)C)C=C2)c2ccc(N(C)C)cc2)cc1; value = 0.23%
SMILES = CCOC(=O)c1ccc(N)cc1; value = 118%
SMILES = C[C@H]1O[C@H](O[C@H]2[C@H](O)[C@@H](O)[C@@H](O[C@H]3[C@H](O)[C@@H](O)C(O)O[C@@H]3CO)O[C@@H]2CO)[C@H](O)[C@@H](O)[C@@H]1N[C@H]1C=C(CO)[C@@H](O)[C@H](O)[C@H]1O (stereo partly drawn); value = 87.1%
SMILES = CC(C)NCC(O)COc1ccc(COCCOC(C)C)cc1 (stereo not drawn); value = 103%
SMILES = CCCCCCCCCCCCCCCC(=O)OC[C@@H](NC(=O)C(Cl)Cl)[C@H](O)c1ccc([N+](=O)[O-])cc1; value = 46.5%
SMILES = Nc1ncn([C@@H]2O[C@H](CO)[C@@H](O)[C@H]2O)c(=O)n1; value = 66.9%

Set 3
SMILES: C[C@H](NC(=O)c1cnc2n1[C@](C)(Cc1ccc(C#N)cc1)C(=O)N2c1cc(Cl)c(F)c(Cl)c1)C(=O)NC1(c2ccccn2)CC1
Read-out: cell-free assay
Technique: competition with immobilised ligand
Concentration: 1 µM
Endpoint: remaining binding
target = Receptor-type tyrosine-protein kinase FLT3 (FLT3, Homo sapiens, UniProt P36888, D835V/ITD); value = 100%
target = Serine/threonine-protein kinase SIK2 (SIK2, Homo sapiens, UniProt Q9H0K1); value = 100%
target = Serine/threonine-protein kinase TAO3 (TAOK3, Homo sapiens, UniProt Q9H2K8); value = 88%
target = Serine/threonine-protein kinase 16 (STK16, Homo sapiens, UniProt O75716); value = 100%
target = Myosin light chain kinase family member 4 (MYLK4, Homo sapiens, UniProt Q86YV6); value = 100%
target = Serine/threonine-protein kinase D3 (PRKD3, Homo sapiens, UniProt O94806); value = 100%
target = Serine/threonine-protein kinase STK11 (STK11, Homo sapiens, UniProt Q15831); value = 100%
target = Serine/threonine-protein kinase 36 (STK36, Homo sapiens, UniProt Q9NRP7); value = 100%
target = Proto-oncogene tyrosine-protein kinase Src (SRC, Homo sapiens, UniProt P12931); value = 100%
target = Serine/threonine-protein kinase 10 (STK10, Homo sapiens, UniProt O94804); value = 100%
target = Ribosomal protein S6 kinase alpha-4, N-terminal kinase domain (RPS6KA4, Homo sapiens, UniProt O75676); value = 63%
target = MAP/microtubule affinity-regulating kinase 4 (MARK4, Homo sapiens, UniProt Q96L34); value = 100%
target = Mitogen-activated protein kinase kinase kinase 3 (MAP3K3, Homo sapiens, UniProt Q99759); value = 100%

Set 4
Target: Platelet-derived growth factor receptor beta (PDGFRB, Homo sapiens, UniProt P09619)
UniProt P09619, sequence (whole entry, looked up): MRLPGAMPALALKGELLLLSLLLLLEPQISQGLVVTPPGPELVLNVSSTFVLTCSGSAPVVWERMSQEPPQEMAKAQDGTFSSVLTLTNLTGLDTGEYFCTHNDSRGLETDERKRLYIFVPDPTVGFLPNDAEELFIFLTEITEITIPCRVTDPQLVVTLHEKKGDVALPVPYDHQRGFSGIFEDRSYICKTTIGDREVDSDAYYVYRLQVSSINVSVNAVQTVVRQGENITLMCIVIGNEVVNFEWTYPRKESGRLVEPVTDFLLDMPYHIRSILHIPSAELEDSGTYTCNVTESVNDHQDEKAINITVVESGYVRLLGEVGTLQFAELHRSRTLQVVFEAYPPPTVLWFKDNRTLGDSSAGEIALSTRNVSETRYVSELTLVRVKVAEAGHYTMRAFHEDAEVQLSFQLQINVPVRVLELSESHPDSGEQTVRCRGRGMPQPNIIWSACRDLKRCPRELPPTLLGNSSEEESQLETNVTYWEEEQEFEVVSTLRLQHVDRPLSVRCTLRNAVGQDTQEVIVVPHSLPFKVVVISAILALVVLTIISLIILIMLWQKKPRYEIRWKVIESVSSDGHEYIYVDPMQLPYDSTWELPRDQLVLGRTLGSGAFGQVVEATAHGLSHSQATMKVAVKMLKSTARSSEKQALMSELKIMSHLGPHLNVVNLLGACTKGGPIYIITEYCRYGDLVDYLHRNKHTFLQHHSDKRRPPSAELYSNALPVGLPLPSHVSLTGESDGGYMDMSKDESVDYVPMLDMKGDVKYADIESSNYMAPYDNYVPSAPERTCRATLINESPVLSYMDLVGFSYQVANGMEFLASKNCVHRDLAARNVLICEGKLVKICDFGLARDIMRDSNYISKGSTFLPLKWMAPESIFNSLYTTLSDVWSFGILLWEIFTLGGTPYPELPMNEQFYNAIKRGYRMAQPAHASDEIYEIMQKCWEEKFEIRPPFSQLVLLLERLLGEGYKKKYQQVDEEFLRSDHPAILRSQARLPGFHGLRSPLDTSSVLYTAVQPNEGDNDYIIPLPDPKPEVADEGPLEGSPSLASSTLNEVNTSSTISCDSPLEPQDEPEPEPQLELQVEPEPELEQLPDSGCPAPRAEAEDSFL
Read-out: enzyme activity
Mode: inhibitor
Concentration: 0.5 µM
Relative to: control
Endpoint: remaining activity
Compound = CCc1[nH]c(-c2ccc(OC)cc2)nc1-c1ccncc1; value = 105%
Compound = Nc1ncnc2c1cnn2-c1ccccc1; value = 94.7%
Compound = Nc1nc(Nc2ccc(S(N)(=O)=O)cc2)nn1C(=O)c1c(F)cccc1F; value = 89.1%
Compound = Cc1cncc2cccc(S(=O)(=O)N3CCCN(C(=O)CN)C[C@@H]3C)c12; value = 104%
Compound = Nc1nccc(-c2c(-c3ccc(F)cc3)ncn2C2CCNCC2)n1; value = 98.7%
Compound = CC#CC(=O)Nc1cc2c(Nc3ccc(F)c(Cl)c3)ncnc2cn1; value = 103%
Compound = N#CC(=C(N)Sc1ccc(N)cc1)c1ccccc1C(F)(F)F; value = 103%
Compound = COc1ccc(S(=O)(=O)N(CCO)c2ccccc2CN(C)CC=Cc2ccc(Cl)cc2)cc1; value = 104%
Compound = NC(=O)c1ccc(N(C(N)=O)c2c(F)cccc2F)nc1-c1ccc(F)cc1F; value = 62.8%
Compound = Cc1ccc(NC2=CC(=O)c3sc(C)nc3C2=O)cc1; value = 94.5%
Compound = Fc1ccc(-c2nc3n(c2-c2ccncc2)CCS3)cc1; value = 107%
Compound = CC(C)(C)n1nc(Cc2cccc3ccccc23)c2c(N)ncnc21; value = 83.3%
Compound = COc1cc(Nc2c(C#N)cnc3cc(OCCCN4CCN(C)CC4)c(OC)cc23)c(Cl)cc1Cl; value = 74.8%
Compound = O=C1NC(=O)C(c2c[nH]c3ccccc23)=C1c1c[nH]c2ccccc12; value = 95.6%
Compound = CSc1nc(-c2ccnc(N[C@@H](C)c3ccccc3)c2)c(-c2ccc(F)cc2)[nH]1 (racemic); value = 97.6%
Compound = Cc1cc(Nc2nc(-c3ccccc3)nc3ccccc23)n[nH]1; value = 55.4%
Compound = CC[n+]1c(/C=C/N(C)c2ccccc2)n(-c2ccccc2)c2ccc(-c3nc4ccccc4s3)cc21; value = 102%
Compound = CCCC(=O)Oc1ccc2[nH]c(C(=O)c3cc4ccccc4[nH]3)cc2c1; value = 91.2%
Compound = Oc1ccc(Nc2nc(-c3ccc(Cl)cc3)cs2)cc1; value = 107%
Compound = O=C1Cc2c([nH]c3ccc([N+](=O)[O-])cc23)-c2ccccc2N1; value = 87.4%
Compound = O=S(=O)(NCCNC/C=C/c1ccc(Br)cc1)c1cccc2cnccc12; value = 112%
